{"data": "Measurements collected from several papers", "note": "A part holds a random share of what one study measured. Positions count from the first letter of the parent shown.", "sequence of UniProt P30291 (whole entry, looked up)": "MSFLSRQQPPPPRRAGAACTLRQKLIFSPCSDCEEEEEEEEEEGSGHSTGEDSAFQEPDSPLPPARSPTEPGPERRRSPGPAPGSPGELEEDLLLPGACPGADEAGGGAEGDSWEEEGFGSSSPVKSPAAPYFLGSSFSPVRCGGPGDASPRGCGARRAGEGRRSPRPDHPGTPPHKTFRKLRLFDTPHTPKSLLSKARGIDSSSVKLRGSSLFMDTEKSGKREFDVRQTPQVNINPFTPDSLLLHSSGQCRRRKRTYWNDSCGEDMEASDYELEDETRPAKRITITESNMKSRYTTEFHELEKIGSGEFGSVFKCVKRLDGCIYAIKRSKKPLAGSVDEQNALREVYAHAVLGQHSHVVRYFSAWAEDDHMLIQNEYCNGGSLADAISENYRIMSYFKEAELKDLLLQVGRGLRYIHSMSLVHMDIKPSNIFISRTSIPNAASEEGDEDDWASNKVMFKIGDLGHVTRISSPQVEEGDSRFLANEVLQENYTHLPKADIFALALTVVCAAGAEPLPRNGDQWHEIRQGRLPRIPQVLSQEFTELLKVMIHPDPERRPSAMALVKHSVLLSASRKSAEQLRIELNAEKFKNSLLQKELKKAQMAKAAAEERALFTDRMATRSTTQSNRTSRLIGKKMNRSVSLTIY"}
{"data": "Study 1", "target": "Homeobox protein Hox-B13, full length (HOXB13, Homo sapiens, UniProt Q92826, residues 1-284)", "method": "protein-binding microarray", "molecule type": "hairpin DNA", "sample": "in vitro", "tested at": "not given", "notes": "whole hairpin DNA, median over replicate spots", "reference": "not given", "direction": "higher = stronger binding", "sequence of UniProt Q92826 (whole entry, looked up)": "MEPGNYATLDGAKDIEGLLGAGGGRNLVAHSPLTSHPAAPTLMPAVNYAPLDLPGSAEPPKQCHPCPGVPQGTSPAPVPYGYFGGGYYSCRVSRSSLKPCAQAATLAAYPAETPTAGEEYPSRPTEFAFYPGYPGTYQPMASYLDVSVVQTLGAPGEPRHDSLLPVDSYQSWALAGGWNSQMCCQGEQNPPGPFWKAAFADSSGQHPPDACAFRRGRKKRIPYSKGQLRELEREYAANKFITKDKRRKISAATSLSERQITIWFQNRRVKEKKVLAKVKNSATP"}
{"Strand": "GAGGCCGTTTTAAGAGGGCCTCCTGGCCCTCTTAAAACGGCCTCACACTC", "median fluorescence [a.u.]": 4100}
{"Strand": "GAGGCCGATTTACGAGGGCCTCCTGGCCCTCGTAAATCGGCCTCACACTC", "median fluorescence [a.u.]": 5140}
{"Strand": "GAGGCCGATTTATTGGGGCCTCCTGGCCCCAATAAATCGGCCTCACACTC", "median fluorescence [a.u.]": 5030}
{"Strand": "GAGGCCGTTTTAGTGGGGCCTCCTGGCCCCACTAAAACGGCCTCACACTC", "median fluorescence [a.u.]": 4310}
{"Strand": "GAGGCCGTTTTATGAGGGCCTCCTGGCCCTCATAAAACGGCCTCACACTC", "median fluorescence [a.u.]": 5080}
{"Strand": "GAGGCCGTTCGATTGGGGCCTCCTGGCCCCAATCGAACGGCCTCACACTC (5mC at 34)", "median fluorescence [a.u.]": 3950}
{"Strand": "GAGGCCGGTTTATTGGGGCCTCCTGGCCCCAATAAACCGGCCTCACACTC (5mC at 37)", "median fluorescence [a.u.]": 5050}
{"Strand": "GAGGCCCGTTTACGAGGGCCTCCTGGCCCTCGTAAACGGGCCTCACACTC (5mC at 37)", "median fluorescence [a.u.]": 4770}
{"data": "Study 2", "Variant": "E129V", "target": "ABI1, truncated, D143A, DHFR fusion (Arabidopsis thaliana)", "method": "DHFR PCA, deep sequencing", "sample": "yeast", "notes": "methotrexate growth selection, single substitutions", "reference": "wild-type fitted maximum", "direction": "higher = stronger binding", "starting sequence": "PYL1, truncated, DHFR fusion (Arabidopsis thaliana); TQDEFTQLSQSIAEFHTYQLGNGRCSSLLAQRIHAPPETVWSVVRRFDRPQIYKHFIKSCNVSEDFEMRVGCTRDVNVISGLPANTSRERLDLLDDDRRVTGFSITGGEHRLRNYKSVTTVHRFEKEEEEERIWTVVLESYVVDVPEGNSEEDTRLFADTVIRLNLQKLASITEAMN"}
{"setting": "with: (+)-ABA 710 µM", "relative binding score [%]": 111}
{"setting": "with: (+)-ABA 1.4 µM", "relative binding score [%]": 47.5}
{"setting": "with: (+)-ABA 0.032 µM", "relative binding score [%]": 12.3}
{"setting": "with: (+)-ABA 58 µM", "relative binding score [%]": 90.5}
{"setting": "with: (+)-ABA 0.0091 µM", "relative binding score [%]": 16.3}
{"setting": "with: (+)-ABA 0.11 µM", "relative binding score [%]": 22.3}
{"data": "Further values, each from its own experiment"}
{"SMILES": "CCOC(=O)[C@@H]1CSCC(=O)N[C@@H](CC)C(=O)N(C)[C@@H](C)C(=O)N[C@@H](CC(C)C)C(=O)N2CCC[C@@H]2C(=O)N(CC)CC(=O)N[C@H](CC(C)C)C(=O)N(C)[C@H](C)C(=O)N[C@@H](CC(C)C)C(=O)N1C", "system": "hydrocarbon/water", "measurement": "logD", "result": -0.388}
{"SMILES": "CCCOc1ccc([C@H]2[C@H](C(=O)O)[C@@H](c3ccc4c(c3)OCO4)CN2CC(=O)Nc2c(CC)cccc2CC)cc1", "tested on": "WEE1 (Homo sapiens, UniProt P30291)", "test": "cell-free assay, competition with immobilised ligand", "setting": "1 µM", "measurement": "remaining binding", "result": "93%"}
{"note": "Excerpt of the above (further values, each from its own experiment):"}
{"SMILES": "CCCOc1ccc([C@H]2[C@H](C(=O)O)[C@@H](c3ccc4c(c3)OCO4)CN2CC(=O)Nc2c(CC)cccc2CC)cc1", "tested on": "WEE1 (Homo sapiens, UniProt P30291)", "test": "cell-free assay, competition with immobilised ligand", "setting": "1 µM", "measurement": "remaining binding", "result": "93%"}
{"SMILES": "CCOC(=O)[C@@H]1CSCC(=O)N[C@@H](CC)C(=O)N(C)[C@@H](C)C(=O)N[C@@H](CC(C)C)C(=O)N2CCC[C@@H]2C(=O)N(CC)CC(=O)N[C@H](CC(C)C)C(=O)N(C)[C@H](C)C(=O)N[C@@H](CC(C)C)C(=O)N1C", "system": "hydrocarbon/water", "measurement": "logD", "result": -0.388}
